Results pooled from the literature.
A part holds a random share of what one study measured. ± marks the error that the study gave.

Set 1 — observed: enzyme activity; mode: inhibitor; sample: PAPC/Triton X-100 mixed micelles; setting: mole fraction in interface; added: PAPC substrate
Target: 85/88 kDa calcium-independent phospholipase A2 (PLA2G6, Homo sapiens, UniProt O60733)
SMILES	XI(50) [mole fraction]
O=C(CCCCc1ccc2ccccc2c1)C(F)(F)F	0.0002
O=C(CCCCc1ccccc1)C(F)(F)C(F)(F)F	0.0014
O=C(CCCCc1ccc2ccccc2c1)C(F)(F)C(F)(F)F	0.0006

Set 2 — observed: enzyme activity; mode: inhibitor; method: mixed micelle; concentration: 0.091 mole fraction
Target: 85/88 kDa calcium-independent phospholipase A2 (PLA2G6, Homo sapiens, UniProt O60733)
SMILES	inhibition [%]
CCCC[C@H](NC(=O)C(=O)CCCCc1ccc(OC)cc1)C(=O)NCC(=O)OCc1ccccc1	> 95
COc1ccc(CCCCC(=O)C(=O)N[C@@H](CC(C)C)C(=O)NCC(=O)OC(C)(C)C)cc1	> 95
CCCC[C@@H](COCC(=O)O)NC(=O)C(=O)CCCCc1ccc(OC)cc1	< 25
CC[C@@H](C)[C@H](NC(=O)C(=O)CCCCc1ccc(OC)cc1)C(=O)NCC(=O)OC(C)(C)C	81.8 ± 4.6
CCCC[C@H](NC(=O)C(=O)CCCCc1ccccc1)C(=O)NCC(=O)O	< 25

Mixed results — observed: enzyme activity; mode: inhibitor; method: mixed micelle
Target: 85/88 kDa calcium-independent phospholipase A2 (PLA2G6, Homo sapiens, UniProt O60733)
Residues used in one study (O60733 1-806): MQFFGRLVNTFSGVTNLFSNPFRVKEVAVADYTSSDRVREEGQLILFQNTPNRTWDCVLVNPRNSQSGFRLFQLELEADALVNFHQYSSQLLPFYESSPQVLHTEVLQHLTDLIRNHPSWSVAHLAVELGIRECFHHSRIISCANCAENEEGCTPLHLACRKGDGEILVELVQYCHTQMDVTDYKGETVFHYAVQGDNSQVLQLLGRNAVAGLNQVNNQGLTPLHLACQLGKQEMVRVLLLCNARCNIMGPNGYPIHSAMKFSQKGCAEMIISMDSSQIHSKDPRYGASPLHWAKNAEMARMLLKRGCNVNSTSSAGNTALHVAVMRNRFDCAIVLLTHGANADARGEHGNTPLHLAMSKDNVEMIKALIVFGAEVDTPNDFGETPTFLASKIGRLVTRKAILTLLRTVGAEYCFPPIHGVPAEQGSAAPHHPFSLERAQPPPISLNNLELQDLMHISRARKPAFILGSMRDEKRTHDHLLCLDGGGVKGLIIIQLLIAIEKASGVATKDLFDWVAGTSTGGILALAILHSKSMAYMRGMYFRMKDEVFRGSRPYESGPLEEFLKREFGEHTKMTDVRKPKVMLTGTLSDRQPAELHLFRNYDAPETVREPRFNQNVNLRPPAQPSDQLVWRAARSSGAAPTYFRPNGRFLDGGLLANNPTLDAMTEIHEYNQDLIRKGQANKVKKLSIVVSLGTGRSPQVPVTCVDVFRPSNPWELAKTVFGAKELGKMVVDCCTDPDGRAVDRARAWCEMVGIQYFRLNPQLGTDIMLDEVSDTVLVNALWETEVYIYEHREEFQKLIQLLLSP
Structure (SMILES)	test system	conditions	endpoint	result
O=C(CCCCc1ccccc1)C(F)(F)C(F)(F)F			XI(50)	0.0073 mole fraction
CCCCCCCCSCC(=O)C(F)(F)F	PAPC/Triton X-100 mixed micelles	mole fraction in micelle surface	IC50	0.0002 mole fraction

Excerpt of the above (set 2):
SMILES	inhibition [%]
CC[C@@H](C)[C@H](NC(=O)C(=O)CCCCc1ccc(OC)cc1)C(=O)NCC(=O)OC(C)(C)C	81.8 ± 4.6
